Measured values collected from several papers.
Compare with care: the assays were run in different laboratories. Numbers after ± are the reported error. Values after ≈ are worked out from the molar mass of the structure shown.

C/C=C(/C)C(=O)O[C@@H]1C=C(C)CC[C@]2(O)[C@@H](C(C)C)CC(=O)[C@]12C: antibacterial activity “inactive” (Helicobacter pylori; broth microdilution; concentration not given).
CC(C)(C)NCC(SS(=O)(=O)O)c1ccccc1 (stereo not shown): activity “inactive” (Schistosoma mansoni; phenotypic changes; somules and adults; up to 10 µM, 3 days).
CN[C@H](CC(C)C)C(=O)N[C@H]1C(=O)N[C@@H](CC(N)=O)C(=O)N[C@H]2C(=O)N[C@H]3C(=O)N[C@H](C(=O)N[C@H](C(=O)O)c4cc(O)cc(O)c4-c4cc3ccc4O)[C@H](O)c3ccc(c(Cl)c3)Oc3cc2cc(c3O[C@@H]2O[C@H](CO)[C@@H](O)[C@H](O)[C@H]2O[C@H]2C[C@](C)(NCc3ccc(C(=O)OCCCCCCN(Cc4ccccn4)Cc4ccccn4)cc3)[C@H](O)[C@H](C)O2)Oc2ccc(cc2Cl)[C@H]1O gave a regulation factor of 13.6 ± 6.6 (Bacillus subtilis; protein synthesis, refers to: YtrE.2; 168; concentration not given, 10 min, at peak effective concentration; baseline: untreated).
Under “Akt, mTOR, p70S6K phosphorylation”, CC(C)=CCC1CC(=O)C(C)=CC2C=C(C)CC(c3ccccc3)C2C(=O)C2=C(O)C(C)(CC=C1C)C(=O)C(C)(C)C2=O (stereo not shown) is recorded as “decreased” (human respiratory syncytial virus; western blot; HEp-2; 5 or 10 µM, 24 h post-infection).
For Cc1ncc([N+](=O)[O-])n1CCOCc1nnc(SCC(=O)c2ccc(Cl)cc2)o1, “inhibition zone diameter” read 15 to 20 mm (Streptococcus pyogenes; DMSO; 60 µg/mL, 24 h, 37 °C).
Nc1ncnc2c(CN3C[C@H](CSc4cnccn4)[C@@H](O)C3)c[nH]c12 gave an IC90 of 8 ng/mL (≈ 0.0224 µM) (Helicobacter pylori; microbial growth).
CC(C)(C)OC(=O)/C=C/c1ccc(O)c(O)c1: antitrypanosomal activity “active” (Trypanosoma brucei rhodesiense; STIB900; concentration not given, bloodstream trypomastigotes, active if IC50 < 10 µM).
With Fc1ccc2c(c1)c1nc3ccc(Br)cc3c-1cn2Cc1cn(-c2ccccc2I)nn1 the fold change was 3.31 (Giardia duodenalis trophozoites; UHPLC-Q-TOF-MS, refers to: PS(19:0/0:0); IC50, 0.1242 h; baseline: 0.25% DMSO).
COc1ccc(-n2c(SCCCN3CCOCC3)nnc2[C@H](Cc2ccccc2)NC(=O)Cc2c(C)[nH]c3ccccc23)cc1 gave an EC50 of 3730 ± 1020 nM (HIV-2; HIV-2-induced cytopathicity, MTT; MT-4, wild type).
For CCCCCCCCCC(=O)N[C@@H](Cc1c[nH]c2ccccc12)C(=O)N[C@H](CC(N)=O)C(=O)N[C@@H](CC(=O)O)C(=O)N[C@@H]1C(=O)NCC(=O)N[C@@H](CCCNC(=O)OC2/C=C/CCCCC2)C(=O)N[C@@H](CC(=O)O)C(=O)N[C@H](C)C(=O)N[C@@H](CC(=O)O)C(=O)NCC(=O)N[C@H](CO)C(=O)N[C@@H]([C@H](C)CC(=O)O)C(=O)N[C@@H](CC(=O)c2ccccc2N)C(=O)O[C@@H]1C (stereo partly shown), “minimum heat inhibitory concentration” read 1 µg/mL (Staphylococcus aureus; isothermal microcalorimetry; MSSA; 24 h, 37 °C, TAG gel).
The EC50 of Nc1ccn(C[C@@H](CO)OCP(=O)(O)OCCCS(=O)(=O)CCCCCCCCCCCCC2CCC2)c(=O)n1 is reported as 30 ± 20 nM (human gammaherpesvirus 8; qPCR; BCBL-1; 7 days).
For CCCCCCCCCCCCCCCCCCCCCCCCCCCCCCOC(=O)/C=C/c1ccc(O)cc1, the MIC ratio was 2.5 (Pichia kudriavzevii; ATCC 6258; baseline: compound over fluconazole).
With O=C(Nc1ccccc1Nc1ccccc1)c1nccnc1Cl the inhibition was 13.6% (Valsa mali; mycelial growth, mycelial growth rate method; 50 mg/L).
CCCSC[C@H]1CN(Cc2c[nH]c3c(N)ncnc23)C[C@@H]1O has an IC90 of 10 ng/mL (≈ 0.0311 µM) (Helicobacter pylori; microbial growth).
For CCOC(=O)C1=C(C)NC2=C(C(=O)CC(C)(C)C2)C1c1ccc(OCC(=O)NN=Cc2cc(Br)c(O)c(Br)c2)cc1OCC(=O)NN=Cc1cc(Br)c(O)c(Br)c1 (stereo not shown), “inhibition zone diameter” read 4.3 ± 0.2 mm (Pseudomonas fluorescens; concentration not given, 24 h, 37 °C).
CCCCCCC[C@@H](CC(=O)O)OC(=O)C[C@@H](CCCCCCC)O[C@@H]1O[C@@H](C)[C@H](O)[C@@H](O)[C@H]1O has an EC50 of 58200 ± 13900 nM (Aliivibrio fischeri; bioluminescence reduction, Microtox; 15 min).
Under “virus titre reduction”, O=c1c2cc3ccccc3cc2nc(SCc2ccc(Cl)cc2)n1Cc1ccccc1 is recorded as 50 ± 2% (coxsackievirus B4; plaque; BGM; concentration not given, non-toxic dose).
Under “fresh weight inhibition”, O=C(O)C1(O)Oc2cc(F)ccc2N(Cc2ccccc2)C1=O (stereo not shown) is recorded as 76% (Arabidopsis thaliana; 2-week-old plants; foliar spray, 200 µg/mL, 20 days).
Under “inhibition zone diameter”, CCOC(=O)C1=C(C)NC2=C(C(=O)CC(C)(C)C2)C1c1ccc(OCC(=O)NN=Cc2cccc([N+](=O)[O-])c2)cc1OCC(=O)NN=Cc1cccc([N+](=O)[O-])c1 (stereo not shown) is recorded as 5.1 ± 0.6 mm (Proteus vulgaris; concentration not given, 24 h, 37 °C).
CCn1c(SCc2ccc(Cl)cc2)nc2cc3ccccc3cc2c1=O: “virus titre reduction” 20 ± 4% (coxsackievirus B4; plaque; BGM; concentration not given, non-toxic dose).
CC(=O)O[C@@H]1[C@@H](OC(C)=O)[C@H](Sc2sc(C(=O)c3ccc(Br)cc3)c(N)c2-c2nc3ccccc3s2)OC[C@H]1OC(C)=O has a viral reduction of 66.7% (coxsackievirus B4; plaque reduction; non-toxic dose NG, mean over three titres).
CC1(CCCCCCCCCCCCCCOCCCOP(=O)(O)CO[C@H](CO)Cn2ccc(N)nc2=O)COC1 gave a selectivity index of over 3 (Murid betaherpesvirus 1; qPCR; MEF, Smith; baseline: CC50 over EC50).
CN[C@@H]1[C@H](O)[C@H](NC)[C@H]2O[C@]3(O)[C@H](O[C@@H]2[C@H]1O)O[C@H](C)C[C@@]3(O)CNCCc1ccc(F)cc1 — result for “intracellular accumulation ratio”: 8.4 fold (Mycobacteroides abscessus; LC-MS/MS, refers to: intracellular compound; ATCC 19977; 100 µM, 30 min; baseline: compound over spectinomycin).
For COc1ccc(-c2nc(-c3ccccc3OC)[nH]c2-c2ccc(OC)cc2)cc1, “reduction in egg number” read 100% (Schistosoma mansoni; worm couples; 10 µM).
COc1ccc(S(=O)(=O)NCc2c[nH]nc2-c2cccs2)cc1 gave an EC90 of 1070 nM (Plasmodium falciparum; parasite growth; Dd2-B2 clone).
CO[C@H]1/C=C/O[C@@]2(C)Oc3c(C)c(O)c4c(c3C2=O)C2=NC3(CCN(CC(C)C)CC3)NC2=C(NC(=O)/C(C)=C\C=C\[C@H](C)[C@H](O)[C@@H](C)[C@@H](O)[C@@H](C)[C@H](OC(=O)c2ccccc2F)[C@@H]1C)C4=O gave an MIC ratio of 1 (Mycobacteroides abscessus; ATCC 19977; baseline: wild type over arr deletion).
CNCc1ccc2c(c1)N(C(=O)OCc1ccccc1)[C@H](CNC(=N)N)[C@H]2NC(=O)C(=O)Nc1ccc(Cl)c(F)c1 — result for “potency fold increase”: 11 fold (HIV-1 JR-FL pseudovirus; viral infection; Cf2Th-CD4/CCR5 cells; baseline: BNM-III-170).
Oc1c(Br)cc(Br)c2nc3c(C(F)(F)F)cc(C(F)(F)F)cc3nc12 has an MBC of 0.59 µM (≈ 0.289 µg/mL) (Staphylococcus aureus; Calgary Biofilm Device; MRSA 1, clinical isolate).
The inhibition of OC[C@H]1O[C@@H](n2cnc3c(SCc4ccccc4)nc(Cl)nc32)C[C@@H]1O is reported as 5% (Helicobacter pylori; microbial growth, absorbance; 26695; 10.8 µM).
CO[C@H]1/C=C/O[C@@]2(C)Oc3c(C)c(O)c4c(c3C2=O)C2=NC3(CCN(CC(C)C)CC3)NC2=C(NC(=O)/C(C)=C\C=C\[C@H](C)[C@H](O)[C@@H](C)[C@@H](O)[C@@H](C)[C@H](OC(=O)c2nccs2)[C@@H]1C)C4=O has an MIC ratio of 1 (Mycobacteroides abscessus; ATCC 19977; baseline: wild type over arr deletion).
COc1ccc(-n2c(SCCN3CCOCC3)nnc2[C@H](Cc2ccccc2)NC(=O)Cc2c(C)[nH]c3ccccc23)cc1 gave a selectivity index of 16 (HIV-2; MT-4, wild type; baseline: CC50 over EC50).
N#Cc1ccc(CSc2nc3cc4ccccc4cc3c(=O)n2Cc2ccccc2)cc1 — result for “virus titre reduction”: 33.3 ± 2% (coxsackievirus B4; plaque; BGM; concentration not given, non-toxic dose).
The reduction of O=c1c(-c2nc3ccccc3s2)cc2c(n1NS(=O)(=O)c1ccc(Cl)cc1)CCCCCC2 is reported as 20% (Human mastadenovirus B; viral replication, plaque reduction; HEp-2 cells, type 7; non-toxic concentration).
The selectivity ratio of Cc1ccc(N2Cc3cc(NC(=O)N4CCN(c5cccc(C(F)(F)F)c5)CC4)ccc3C2=O)cc1 is reported as 61 (Trypanosoma brucei rhodesiense; STIB-900; 3 days; baseline: IC50 T. b. brucei over IC50 T. b. rhodesiense).

For quick reference, copied from above:
The EC50 of Nc1ccn(C[C@@H](CO)OCP(=O)(O)OCCCS(=O)(=O)CCCCCCCCCCCCC2CCC2)c(=O)n1 is reported as 30 ± 20 nM (human gammaherpesvirus 8; qPCR; BCBL-1; 7 days).
For CCCCCCCCCCCCCCCCCCCCCCCCCCCCCCOC(=O)/C=C/c1ccc(O)cc1, the MIC ratio was 2.5 (Pichia kudriavzevii; ATCC 6258; baseline: compound over fluconazole).
With O=C(Nc1ccccc1Nc1ccccc1)c1nccnc1Cl the inhibition was 13.6% (Valsa mali; mycelial growth, mycelial growth rate method; 50 mg/L).
